# Experimental data of several laboratories.
# ± gives the spread as reported.
SMILES,organism,test,system,setting,how to read,measurement,value
CC(C)C[C@H](NC(=O)OCc1ccccc1)C(=O)N[C@@H](C[C@H]1CCNC1=O)C(=O)C(=O)NC1CC1,Enterovirus D68,viral replication,WI-38,37 °C,,EC50,80 ± 20 nM
C#CCN1CCC23C(=C(C(=O)OC)CC(C(=O)OC)C12)Nc1ccccc13 (centres unmarked),hepatitis B virus,HBsAg secretion,HepAD38,,reference: CC50 over IC50,selectivity index,> 20.1
CC1(CCCCCCCCCCCCOCCCOP(=O)(O)CO[C@H](CO)Cn2ccc(N)nc2=O)COC1,human betaherpesvirus 5,cytopathic effect,AD169,,reference: CC50 over EC50,selectivity index,1820
COc1ccc(C(=O)CSc2nnc(COCCn3c([N+](=O)[O-])cnc3C)o2)cc1F,Enterobacter cloacae,,DMSO,"60 µg/mL, 24 h, 37 °C",,inhibition zone diameter,≥ 20 mm
CC(=O)N[C@@H]1[C@@H](OC(C)=O)[C@H](OC(C)=O)[C@@H](COC(C)=O)O[C@H]1[Se]C(=O)c1ccc([N+](=O)[O-])cc1,Trypanosoma brucei brucei,,bloodstream form,"5 µM, 24 h, 1 % DMSO",,viability,86.1 ± 4.7%
Cc1cc(O)cc2c1C(=O)c1c(cc3oc(=O)cc(-c4ccccc4)c3c1O)C2=O,Bacillus cereus,,MTCC 1306,100 µg/disc,,inhibition zone diameter,8 mm
O=C1CC(c2ccc(O)cc2)Oc2cc(O)cc([O][Ga+][O]c3cc(O)cc4c3C(=O)CC(c3ccc(O)cc3)O4)c21 (centres unmarked),Pseudomonas aeruginosa,ICP-MS,,,,bacterial iron content,decreased
CCCc1ccc(C(=O)N2c3ccc(F)cc3[C@@H](Nc3ccccc3)C[C@H]2C)cc1,Aedes albopictus,,,"1 µM, second-instar larvae",,logit mortality,0.64
CC[P+](CC)(CC)[Au-][S+](C[C@H]1O[C@H](O[C@H]2O[C@H](COC(C)=O)[C@@H](OC(C)=O)[C@H](OC(C)=O)[C@H]2OC(C)=O)[C@H](OC(C)=O)[C@@H](OC(C)=O)[C@@H]1OC(C)=O)[Au-][P+](CC)(CC)CC.[Cl-],Enterobacter cloacae,,NCTC 13405,concentration not given,reference: auranofin,fold activity enhancement,8
CC(=O)[O-].O.[Cu+2].[O-]c1ccc(Br)cc1C=NCCN1CCOCC1,Bacillus cereus,,,20 µL of 100 µM per disc,,inhibition zone diameter,14 mm
CCCCCCCCCC1CC2CCC3CC(CCCCCCCCC)NC(=N1)N23 (centres unmarked),Candida krusei,fungal growth,ATCC 6258,,,MFC,2.99 µM
CC1(CCCCCCCCCCOCCCOP(=O)(O)CO[C@H](CO)Cn2ccc(N)nc2=O)COC1,human betaherpesvirus 5,cytopathic effect,AD169,,reference: CC50 over EC50,selectivity index,> 714
O=C(Nc1ccc2c(c1)CN(c1ccccc1)C2=O)N1CC[C@H](O)C1,Trypanosoma brucei brucei,"parasite growth, resazurin",Squib 427,3 d,,IC50,> 64000 nM
Cc1ncc(COP(=O)(O)O)c(C=NNC(=N)NO)c1O,Herpes simplex virus 1,"viral replication, plaque reduction","Vero, McKrae",4 days,,IC50,inactive
COc1ccc(-c2nc(-c3ccccc3OC)[nH]c2-c2ccc(OC)cc2)cc1,Schistosoma mansoni,,adult male worms,10 µM,,worm killing,0%
C#CCN1CCc2c([nH]c3ccccc23)C(=C)C1=O,hepatitis B virus,HBsAg secretion,HepAD38,,reference: CC50 over IC50,selectivity index,13.9
O=C(N[C@@H](CC1CCCCC1)C(=O)N[C@@H](C[C@H]1CCNC1=O)C(=O)C(=O)NC1CC1)OCc1ccccc1,human rhinovirus 51,viral replication,WI-38,37 °C,,EC50,50 ± 30 nM
COc1ccc(NC(=O)N2CCCN3CCC(c4ccc(C#CC5CCOCC5)cc4)C3C2)cc1 (centres unmarked),Toxoplasma gondii,parasite growth,"HFF, RH type I luciferase",,,EC90,3070 ± 330 nM
CCCCCCCCn1c2ccccc2c2ccncc21,Echinococcus granulosus,eosin staining,sensu stricto protoscoleces,"40 µM, 48 h, 10% fetal bovine serum",,viability,83.1 ± 1.93%
Cc1ccc(NC(=O)N2CCCN3CCC(c4ccc(C#CC5(O)CCOCC5)cc4)C3C2)cc1 (centres unmarked),Toxoplasma gondii,parasite growth,"HFF, RH type I luciferase",,,EC90,4880 ± 730 nM
Cc1c2c(cc3oc(=O)cc(-c4ccc(Cl)cc4)c13)C(=O)c1cccc(O)c1C2=O,Bacillus cereus,,MTCC 1306,100 µg/disc,,zone of inhibition,8 mm
O=C(N[C@@H](CC1CCCCC1)C(=O)N[C@@H](C[C@H]1CCNC1=O)C(=O)C(=O)NC1CC1)OCc1cccc(Cl)c1,human rhinovirus 51,viral replication,WI-38,,,EC90,350 nM
C[C@@H]1C[C@H](Nc2ccccc2)c2cc(F)ccc2N1C(=O)c1ccc(C(F)(F)F)c(F)c1,Aedes albopictus,,,"1 µM, second-instar larvae",,logit mortality,0.52
O=C[C@H](C[C@H]1CCNC1=O)NC(=O)[C@H](Cc1ccccc1)NC(=O)OCc1ccccc1,human rhinovirus 1B,viral replication,WI-38,37 °C,,EC50,950 ± 490 nM
Cc1ccc(NC(=O)N2CCCN3CCC(c4ccc(C#CC5CCCCC5)cc4)C3C2)cc1 (centres unmarked),Toxoplasma gondii,parasite growth,"HFF, RH type I luciferase",,,EC90,1810 ± 410 nM
O=C(Nc1ccccc1Nc1ccccc1)c1cccnc1F,Sclerotinia sclerotiorum,microbial growth,,50 µg/mL,,inhibition,30.6%
CC(=O)OC[C@H]1O[C@@H]([Se][C@@H]2O[C@H](COC(C)=O)[C@@H](OC(C)=O)[C@H](OC(C)=O)[C@H]2OC(C)=O)[C@H](OC(C)=O)[C@@H](OC(C)=O)[C@@H]1OC(C)=O,Trypanosoma brucei brucei,,bloodstream form,"5 µM, 24 h, 1 % DMSO",,viability,≤ 50%
C[C@@H]1C[C@H](Nc2ccccc2)c2cc(F)ccc2N1C(=O)c1ccc(Cl)c(F)c1,Aedes albopictus,,,"1 µM, second-instar larvae",,logit mortality,1.06
O=C(Nc1ccc(F)cc1F)N1CCCN2CCC(c3ccc(C#Cc4ccccc4)cc3)C2C1 (centres unmarked),Toxoplasma gondii,parasite growth,"HFF, RH type I luciferase",,,EC90,5420 nM
Cc1ncc([N+](=O)[O-])n1CCOCc1nnc(SCC(=O)c2ccc(Cl)cc2)o1,Enterobacter cloacae,,DMSO,"60 µg/mL, 24 h, 37 °C",,inhibition zone diameter,≥ 20 mm
CCCCCc1ccc(C(=O)N2c3ccc(F)cc3[C@@H](Nc3ccccc3)C[C@H]2C)cc1,Aedes albopictus,,,"1 µM, second-instar larvae",,logit mortality,0
COC1C=COC2(C)Oc3c(C)c(O)c4c(c3C2=O)C2=NC3(CCN(CC(C)C)CC3)NC2=C(NC(=O)C(C)=CC=CC(C)C(O)C(C)C(O)C(C)C(OC(=O)Nc2cnccn2)C1C)C4=O (centres unmarked),Mycobacteroides abscessus,,ATCC 19977,1:1 CAMHB:human serum,,IC50,45 nM
Cc1nccc2c3ccccc3n(Cc3cccnc3)c12,Echinococcus granulosus s.s.,,"mouse, Echinococcus granulosus infection","oral, 50 mg/kg/day, 28 days",,cyst weight,4.75 ± 1.31 g
CC(C)C[C@H](NC(=O)OCc1cccc(Cl)c1)C(=O)N[C@@H](C[C@H]1CCNC1=O)C(=O)C(=O)NC1CC1,human rhinovirus 51,viral replication,WI-38,37 °C,,EC50,150 ± 80 nM
Cc1cc(=O)oc2cc3c(c(C)c12)C(=O)c1c(O)cccc1C3=O,Bacillus cereus,,MTCC 1306,100 µg/disc,,zone of inhibition,8 mm
Cc1ncnc(C)c1-c1ccc(C(=O)N2CC[C@H](C(=O)Nc3cc(F)c(F)c(F)c3)C2)[nH]1,hepatitis B virus,refers to: intracellular HBV DNA,HepG2.2.15,"0.1 µM, 144 h",reference: vehicle,HBV DNA remaining,45%
O=C(Nc1ccccc1)N1CCCN2CCC(c3ccc(C#Cc4ccccc4)cc3)C2C1 (centres unmarked),Toxoplasma gondii,parasite growth,"HFF, RH type I luciferase",,,EC90,4820 ± 130 nM
COC(=O)/C=C/c1ccc(OCCNS(C)(=O)=O)c(OC)c1,tobacco mosaic virus,half-leaf method,tobacco,500 µg/mL,,curative activity,50.3 ± 1.9%
CCc1ccc(C(=O)N2c3ccc(F)cc3[C@@H](Nc3ccccc3)C[C@H]2C)cc1,Aedes albopictus,,,"1 µM, second-instar larvae",,logit mortality,1.03
COc1ccc(NC(=O)N2CCCN3CCC(c4ccc(C#CC(C)C)cc4)C3C2)cc1 (centres unmarked),Toxoplasma gondii,,"HFF, RH (type I)",concentration not given,,growth inhibition,inactive
CC(C)C[C@H](NC(=O)OCc1ccccc1)C(=O)N[C@H](C=O)C[C@H]1CCNC1=O,Enterovirus D68,viral replication,WI-38,37 °C,,EC50,380 ± 250 nM
Cc1ncccc1-c1ccc(C(=O)N2CC[C@H](C(=O)Nc3cc(F)c(F)c(F)c3)C2)[nH]1,hepatitis B virus,refers to: intracellular HBV DNA,HepG2.2.15,"0.1 µM, 144 h",reference: vehicle,HBV DNA remaining,76%
O=C(Nc1ccccc1)N1CCCN2CCC(c3ccc(C#Cc4cccnc4)cc3)C2C1 (centres unmarked),Toxoplasma gondii,parasite growth,"HFF, RH type I luciferase",,,EC90,3870 nM
CC1C=CC=CC(C)C2C=CC3CC(C)(O)C(Cl)C(C)C3C2C(=O)C(Cl)(Cl)C(=O)C(C)C(=O)O1 (centres unmarked),Staphylococcus aureus,,MSSA and MRSA clinical isolates,,,MIC range,0.025 to 0.2 µg/mL
Cc1ccc(S(=O)(=O)N(CCc2nnc(S)o2)c2ccc(Cl)cc2)cc1,Colletotrichum capsici,cup plate method,,100 µg/mL,reference: fluconazole,relative inhibition,206%
O=C(Nc1ccccc1Nc1ccccc1)c1cccnc1C(F)(F)F,Sclerotinia sclerotiorum,microbial growth,,50 µg/mL,,inhibition,47.1%
COc1ccc(NC(=O)N2CCCN3CCC(c4ccc(C#Cc5ccncc5)cc4)C3C2)cc1 (centres unmarked),Toxoplasma gondii,parasite growth,"HFF, RH type I luciferase",,,EC90,9690 nM
O=C(CCNC(=O)c1ccsc1)Nc1cccc(Oc2ccc(Cl)cc2)c1,hepatitis B virus,"sucrose density gradient, refers to: HBsAg","HepG2.2.15.7, culture supernatant",,,density of subviral particle peak,1.14 to 1.16 g/mL
C#CCN1CCc2c3n(c4ccccc24)C(=O)C(=C)C3(C(=O)OC)C1 (centres unmarked),hepatitis B virus,rcDNA level,HuH7-NTCP,5 µM,,inhibition,< 40%
CN[C@H](CC(C)C)C(=O)N[C@H]1C(=O)N[C@@H](CC(N)=O)C(=O)N[C@H]2C(=O)N[C@H]3C(=O)N[C@H](C(=O)N[C@H](C(=O)O)c4cc(O)cc(O)c4-c4cc3ccc4O)[C@H](O)c3ccc(c(Cl)c3)Oc3cc2cc(c3O[C@@H]2O[C@H](CO)[C@@H](O)[C@H](O)[C@H]2O[C@H]2C[C@](C)(NCc3ccc(C(=O)OCCCCCCN(Cc4ccccn4)Cc4ccccn4)cc3)[C@H](O)[C@H](C)O2)Oc2ccc(cc2Cl)[C@H]1O,Bacillus subtilis,"protein synthesis, refers to: PspA",168,"concentration not given, 10 min, at peak effective concentration",reference: untreated,regulation factor,8.2 ± 2.5
Cc1ccc(S(=O)(=O)Nn2c3c(cc(-c4nc5ccccc5s4)c2=O)CCCCCC3)cc1,Coxsackievirus B4,"viral replication, plaque reduction",BGM cells,,reference: CC50 over IC50,selectivity index,2.77
CC(C)C[C@H](NC(=O)CNC(=O)c1cc(Cl)ccc1Cl)B(O)O,Babesia divergens,,erythrocyte culture,"200 nM, 48 h",,parasite replication,no effect
C#CCN1CCc2c(n(C(=C)C(=O)OC)c3ccccc23)C(C(=O)OC)C1 (centres unmarked),hepatitis B virus,HBsAg secretion,HuH7-NTCP,5 µM,,inhibition,> 90%
CCOC(=O)/C=C/c1ccc(OCCNS(=O)(=O)c2c(Cl)cccc2Cl)c(OC)c1,tobacco mosaic virus,half-leaf method,tobacco,500 µg/mL,,curative activity,55.3 ± 2.9%
Cc1ccc(O)c(C=NNC(=N)NO)n1,human mastadenovirus C,plaque reduction,"A549, McEwen",,,inhibitory concentration,< 100 µM
Cc1ccc(S(=O)(=O)N(CCc2nnc(S)o2)c2ccccc2)cc1,Colletotrichum capsici,cup plate method,,100 µg/mL,reference: fluconazole,relative inhibition,64.7%
